{"data": "Measured values from different studies"}
{"Compound": "CCCS(=O)(=O)Nc1c(F)ccc(C(=O)c2n[nH]c3ncc(-c4ccncc4)cc23)c1F", "species": "male C57BL/6 mouse", "matrix": "plasma", "route": "oral", "dose": "30 mg/kg", "Cmax": "53500 nM"}
{"Compound": "Nc1ccn([C@@H]2O[C@H](CO)[C@@H](O)C2(F)F)c(=O)n1", "species": "male BALB/c mouse", "matrix": "plasma", "route": "intravenous", "dose": "38 µmol/kg", "Cmax": "183000 nM"}
{"Compound": "COc1cc(Nc2ncc3c(n2)-c2ccc(Cl)cc2C(c2c(F)cccc2OC)=NC3)ccc1C(=O)O", "species": "SCID mouse", "matrix": "plasma", "route": "oral", "dose": "20.8 mg/kg", "setting": "single dose", "Cmax": "42500 nM"}
{"Compound": "COc1ccc(CC[C@@H](NC(=O)[C@H](CCCc2ccccc2)NC(=O)CN2CCOCC2)C(=O)N[C@H](Cc2ccc(C)cc2)C(=O)NO)cc1", "species": "BALB/c mouse", "matrix": "plasma", "route": "intraperitoneal", "dose": "30 mg/kg", "Cmax": "~400 ng/mL"}
{"Compound": "CCOC(=O)CN(C(=O)c1ccn2ncc(-c3ccc(C(=O)NC)cc3)c2c1)c1ccc(Cl)cc1", "species": "female C57BL/6 mouse", "matrix": "plasma", "route": "oral", "dose": "10 mg/kg", "Cmax": "293 nM"}
{"Compound": "O=C(O[C@@H]1Cc2c(O)cc(O)cc2O[C@@H]1c1cc(O)c(O)c(O)c1)c1cc(O)c(O)c(O)c1", "species": "mouse", "matrix": "plasma", "route": "oral", "dose": "50 mg/kg", "setting": "single dose", "Cmax": "76.3 nM"}
{"Compound": "COc1ccc2c(c1OCCCS(=O)(=O)O)C(=O)O[C@@H]2[C@H]1c2c(c(Br)c3c(c2OC)OCO3)CCN1C", "species": "male CD-1 mouse", "matrix": "plasma", "route": "oral", "dose": "50 mg/kg", "Cmax": "8.5 ng/mL"}
{"Compound": "C1CCc2c(c(N3CCOCC3)nc3sc4c(N5CCNCC5)nnnc4c23)C1", "species": "male Swiss mouse", "matrix": "plasma", "route": "intravenous", "dose": "3 mg/kg", "Cmax": "241 ng/mL"}
{"Compound": "Cc1ncsc1-c1ccc(CNC(=O)[C@@H]2C[C@@H](O)CN2C(=O)[C@@H](NC(=O)CCCCCCCCCCNC(=O)O[C@H]2C[C@@H](C)C=C3C=C[C@H](C)[C@H](CC[C@@H]4C[C@@H](O)CC(=O)O4)[C@H]32)C(C)(C)C)cc1", "species": "C57BL/6 mouse", "matrix": "plasma", "route": "oral", "dose": "60 mg/kg", "setting": "single dose", "Cmax": "470 nM"}
{"Compound": "COc1cccc(CN)c1O", "species": "male C57BL/6 mouse", "matrix": "spleen", "route": "intraperitoneal", "dose": "200 mg/kg", "setting": "single dose", "Cmax": "936000 ng/g"}
{"Compound": "COC(=O)c1cc(Cl)ccc1N(C)C(=O)c1ccn2ncc(-c3ccc(C(N)=O)cc3)c2c1", "species": "female C57BL/6 mouse", "matrix": "plasma", "route": "oral", "dose": "10 mg/kg", "Cmax": "32.7 nM"}
{"Compound": "CC(C)n1ncc2c(C(=O)NCC3(C)CNC3)cc(C3CC3)nc21", "species": "female BALB/c mouse", "matrix": "plasma", "route": "intraperitoneal", "dose": "50 mg/kg", "Cmax": "2300 ng/mL"}
{"Compound": "CNC(=O)c1ccc(-c2cnn3ccc(C(=O)N(C[C@H]4CCC(=O)O4)c4ccc(OC(F)(F)F)cc4)cc23)cc1", "species": "female C57BL/6 mouse", "matrix": "plasma", "route": "oral", "dose": "10 mg/kg", "Cmax": "31.7 nM"}
{"Compound": "CC(C)c1cc(C(=O)NCCN)c2cnn(C(C)C)c2n1", "species": "female BALB/c mouse", "matrix": "plasma", "route": "intraperitoneal", "dose": "50 mg/kg", "Cmax": "2840 ng/mL"}
{"Compound": "O=C(O)CCN1C(=O)/C(=C2/C(=O)Nc3ccc(Cl)cc32)SC1=S", "species": "mouse", "matrix": "plasma", "route": "intraperitoneal", "dose": "25 mg/kg", "Cmax": "2640 ng/mL"}
{"note": "Excerpt of the above:"}
{"Compound": "COc1ccc(CC[C@@H](NC(=O)[C@H](CCCc2ccccc2)NC(=O)CN2CCOCC2)C(=O)N[C@H](Cc2ccc(C)cc2)C(=O)NO)cc1", "species": "BALB/c mouse", "matrix": "plasma", "route": "intraperitoneal", "dose": "30 mg/kg", "Cmax": "~400 ng/mL"}
{"Compound": "Nc1ccn([C@@H]2O[C@H](CO)[C@@H](O)C2(F)F)c(=O)n1", "species": "male BALB/c mouse", "matrix": "plasma", "route": "intravenous", "dose": "38 µmol/kg", "Cmax": "183000 nM"}
